{"data": "Measured values of several laboratories", "U2AF2": "U2AF2 148-342 (Homo sapiens, UniProt P26368)", "B1": "human RBM10; sequence looked up; chain MEYERRGGRGDRTGRYGATDRSQDDGGENRSRDHDYRDMDYRSYPREYGSQEGKHDYDDSSEEQSAEDSYEASPGSETQRRRRRRHRHSPTGPPGFPRDGDYRDQDYRTEQGEEEEEEEDEEEEEKASNIVMLRMLPQAATEDDIRGQLQSHGVQAREVRLMRNKSSGQSRGFAFVEFSHLQDATRWMEANQHSLNILGQKVSMHYSDPKPKINEDWLCNKCGVQNFKRREKCFKCGVPKSEAEQKLPLGTRLDQQTLPLGGRELSQGLLPLPQPYQAQGVLASQALSQGSEPSSENANDTIILRNLNPHSTMDSILGALAPYAVLSSSNVRVIKDKQTQLNRGFAFIQLSTIVEAAQLLQILQALHPPLTIDGKTINVEFAKGSKRDMASNEGSRISAASVASTAIAAAQWAISQASQGGEGTWATSEEPPVDYSYYQQDEGYGNSQGTESSLYAHGYLKGTKGPGITGTKGDPTGAGPEASLEPGADSVSMQAFSRAQPGAAPGIYQQSAEASSSQGTAANSQSYTIMSPAVLKSELQSPTHPSSALPPATSPTAQESYSQYPVPDVSTYQYDETSGYYYDPQTGLYYDPNSQYYYNAQSQQYLYWDGERRTYVPALEQSADGHKETGAPSKEGKEKKEKHKTKTAQQIAKDMERWARSLNKQKENFKNSFQPISSLRDDERRESATADAGYAILEKKGALAERQHTSMDLPKLASDDRPSPPRGLVAAYSGESDSEEEQERGGPEREEKLTDWQKLACLLCRRQFPSKEALIRHQQLSGLHKQNLEIHRRAHLSENELEALEKNDMEQMKYRDRAAERREKYGIPEPPEPKRRKYGGISTASVDFEQPTRDGLGSDNIGSRMLQAMGWKEGSGLGRKKQGIVTPIEAQTRVRGSGLGARGSSYGVTSTESYKETLHKTMVTRFNEAQ", "B2": "human EEF1D; sequence looked up; chain ATNFLAHEKIWFDKFKYDDAERRFYEQMNGPVAGASRQENGASVILRDIARARENIQKSLAGSSGPGASSGTSGDHGELVVRIASLEVENQSLRGVVQELQQAISKLEARLNVLEKSSPGHRATAPQTQHVSPMRQVEPPAKKPATPAEDDEDDDIDLFGSDNEEEDKEAAQLREERLRQYAEKKAKKPALVAKSSILLDVKPWDDETDMAQLEACVRSIQLDGLVWGASKLVPVGYGIRKLQIQCVVEDDKVGTDLLEEEITKFEEHVQSVDIAAFNKI", "B3": "human hnRNP Q; sequence looked up; chain ATEHVNGNGTEEPMDTTSAVIHSENFQTLLDAGLPQKVAEKLDEIYVAGLVAHSDLDERAIEALKEFNEDGALAVLQQFKDSDLSHVQNKSAFLCGVMKTYRQREKQGTKVADSSKGPDEAKIKALLERTGYTLDVTTGQRKYGGPPPDSVYSGQQPSVGTEIFVGKIPRDLFEDELVPLFEKAGPIWDLRLMMDPLTGLNRGYAFVTFCTKEAAQEAVKLYNNHEIRSGKHIGVCISVANNRLFVGSIPKSKTKEQILEEFSKVTEGLTDVILYHQPDDKKKNRGFCFLEYEDHKTAAQARRRLMSGKVKVWGNVGTVEWADPIEDPDPEVMAKVKVLFVRNLANTVTEEILEKAFSQFGKLERVKKLKDYAFIHFDERDGAVKAMEEMNGKDLEGENIEIVFAKPPDQKRKERKAQRQAAKNQMYDDYYYYGPPHMPPPTRGRGRGGRGGYGYPPDYYGYEDYYDYYGYDYHNYRGGYEDPYYGYEDFQVGARGRGGRGARGAAPSRGRGAAPPRGRAGYSQRGGPGSARGVRGARGGAQQQRGRGVRGARGGRGGNVGGKRKADGYNQPDSKRRQTNNQNWGSQPIAQQPLQGGDHSGNYGYKSENQEFYQDTFGQQWK", "B4": "sequence looked up; chain AARVLIIGSGGREHTLAWKLAQSHHVKQVLVAPGNAGTACSEKISNTAISISDHTALAQFCKEKKIEFVVVGPEAPLAAGIVGNLRSAGVQCFGPTAEAAQLESSKRFAKEFMDRHGIPTAQWKAFTKPEEACSFILSADFPALVVKASGLAAGKGVIVAKSKEEACKAVQEIMQEKAFGAAGETIVIEELLDGEEVSCLCFTDGKTVAPMPPAQDHKRLLEGDGGPNTGGMGAYCPAPQVSNDLLLKIKDTVLQRTVDGMQQEGTPYTGILYAGIMLTKNGPKVLEFNCRFGDPECQVILPLLKSDLYEVIQSTLDGLLCTSLPVWLENHTALTVVMASKGYPGDYTKGVEITGFPEAQALGLEVFHAGTALKNGKVVTHGGRVLAVTAIRENLISALEEAKKGLAAIKFEGAIYRKDVGFRAIAFLQQPRSLTYKESGVDIAAGNMLVKKIQPLAKATSRSGCKVDLGGFAGLFDLKAAGFKDPLLASGTDGVGTKLKIAQLCNKHDTIGQDLVAMCVNDILAQGAEPLFFLDYFSCGKLDLSVTEAVVAGIAKACGKAGCALLGGETAEMPDMYPPGEYDLAGFAVGAMERDQKLPHLERITEGDVVVGIASSGLHSNGFSLVRKIVAKSSLQYSSPAPDGCGDQTLGDLLLTPTRIYSHSLLPVLRSGHVKAFAHITGGGLLENIPRVLPEKLGVDLDAQTWRIPRVFSWLQQEGHLSEEEMARTFNCGVGAVLVVSKEQTEQILRDIQQHKEEAWVIGSVVARAEGSPRVKVKNLIESMQINGSVLKNGSLTNHFSFEKKKARVAVLISGTGSNLQALIDSTREPNSSAQIDIVISNKAAVAGLDKAERAGIPTRVINHKLYKNRVEFDSAIDLVLEEFSIDIVCLAGFMRILSGPFVQKWNGKMLNIHPSLLPSFKGSNAHEQALETGVTVTGCTVHFVAEDVDAGQIILQEAVPVKRGDTVATLSERVKLAEHKIFPAALQLVASGTVQLGENGKICWVKEE", "note": "Compare with care: the assays were run in different laboratories. Values joined by “and” are separate records of one study, mostly repeats; a detail may differ. ± marks the error that the study gave.", "UniProt P26368, sequence (whole entry, looked up)": "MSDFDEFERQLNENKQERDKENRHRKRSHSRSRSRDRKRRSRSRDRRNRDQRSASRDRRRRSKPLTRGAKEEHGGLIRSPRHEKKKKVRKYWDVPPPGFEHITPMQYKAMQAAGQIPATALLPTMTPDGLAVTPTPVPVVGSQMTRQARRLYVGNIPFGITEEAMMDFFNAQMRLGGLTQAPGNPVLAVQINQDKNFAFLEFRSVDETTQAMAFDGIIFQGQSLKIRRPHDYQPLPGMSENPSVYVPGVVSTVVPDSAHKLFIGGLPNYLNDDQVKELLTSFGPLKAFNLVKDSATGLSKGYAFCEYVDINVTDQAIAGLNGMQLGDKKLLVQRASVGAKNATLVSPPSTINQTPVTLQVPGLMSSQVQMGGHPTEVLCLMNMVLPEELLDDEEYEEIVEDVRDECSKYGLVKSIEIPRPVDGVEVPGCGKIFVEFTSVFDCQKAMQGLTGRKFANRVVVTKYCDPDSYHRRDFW", "UniProt P13393, sequence (whole entry, looked up)": "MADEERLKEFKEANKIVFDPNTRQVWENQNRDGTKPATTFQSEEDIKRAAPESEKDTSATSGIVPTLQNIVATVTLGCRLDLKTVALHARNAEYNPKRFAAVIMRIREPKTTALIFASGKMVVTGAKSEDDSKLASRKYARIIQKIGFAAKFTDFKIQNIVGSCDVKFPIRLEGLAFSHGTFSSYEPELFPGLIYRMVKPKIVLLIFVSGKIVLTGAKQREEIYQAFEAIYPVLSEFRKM"}
{"Substance": "Peginesatide", "target or system": "UT7/EPO", "test": "tyrosine phosphorylation, LC-MS/MS phosphoproteomics, GluC, measured: GAB1 tyrosine 285", "conditions": "10 nM, 15 min, with: 10 U/mL EPO", "scale": "relative to: vehicle", "endpoint": "phosphorylation level", "value": "6.5 fold"}
{"Substance": "PTBP3 (human)", "target or system": "CYB5R4 knockout human cells", "test": "PP6 interaction, 3xFLAG-PP6C IP-MS", "conditions": "concentration not given", "scale": "relative to: CYB5R4 KO over parental", "endpoint": "log2 fold change", "value": -0.32}
{"Substance": "MTVCNASQRQAHAQATAVSL", "target or system": "HCC2279", "test": "phage binding", "test system": "peptide", "scale": "relative to: targeting over control phage", "endpoint": "selectivity ratio", "value": "1.4 ± 0.6"}
{"Substance": "B1 (human RBM10)", "target or system": "CYB5R4 knockout human cells", "test": "PP4 interaction, 3xFLAG-PP4C IP-MS", "conditions": "concentration not given", "scale": "relative to: CYB5R4 KO over parental", "endpoint": "log2 fold change", "value": 0.38}
{"Substance": "CXCL12", "target or system": "human neural stem cells", "test": "western blot, measured: phospho-ERK1/2 Tyr202/Tyr204", "conditions": "12.5 nM", "endpoint": "time to ERK1/2 phosphorylation", "value": "2 to 5 min"}
{"Substance": "EPDPIGYEF", "target or system": "Jurkat expressing engineered TCR", "test": "NFAT-eGFP reporter, fluorescence microscopy", "test system": "peptide", "conditions": "concentration not given, HLA-A*01:01 on EL4 cells", "endpoint": "GFP-positive cells", "value": "0.467%"}
{"Substance": "B2 (human EEF1D)", "target or system": "CYB5R4 knockout human cells", "test": "PP4 interaction, 3xFLAG-PP4C IP-MS", "conditions": "concentration not given", "scale": "relative to: CYB5R4 KO over parental", "endpoint": "log2 fold change", "value": 0.8}
{"Substance": "ELEPIPLGF", "target or system": "Jurkat expressing engineered TCR", "test": "NFAT-eGFP reporter, fluorescence microscopy", "test system": "peptide", "conditions": "concentration not given, HLA-A*01:01 on EL4 cells", "endpoint": "GFP-positive cells", "value": "0.499%"}
{"Substance": "epoetin alfa", "target or system": "UT7/EPO", "test": "RT-qPCR, measured: CD69", "conditions": "concentration not given, 90 min", "scale": "relative to: vehicle", "endpoint": "mRNA fold induction", "value": "11.7 fold"}
{"Substance": "GTDPIPRTM", "target or system": "Jurkat expressing engineered TCR", "test": "NFAT-eGFP reporter, fluorescence microscopy", "test system": "peptide", "conditions": "concentration not given, HLA-A*01:01 on EL4 cells", "endpoint": "GFP-positive cells", "value": "0.424%"}
{"Substance": "CUUAUUUUU (ssRNA)", "target or system": "U2AF2", "test": "sequencing of bound RNA", "test system": "RNA", "conditions": "motif only", "endpoint": "Kd", "value": "9110 nM"}
{"Substance": "B3 (human hnRNP Q)", "target or system": "CYB5R4 knockout human cells", "test": "PP4 interaction, 3xFLAG-PP4C IP-MS", "conditions": "concentration not given", "scale": "relative to: CYB5R4 KO over parental", "endpoint": "log2 fold change", "value": 0.15}
{"Substance": "YVDPIPLGF", "target or system": "Jurkat expressing engineered TCR", "test": "NFAT-eGFP reporter, fluorescence microscopy", "test system": "peptide", "conditions": "concentration not given, HLA-A*01:01 on EL4 cells", "endpoint": "GFP-positive cells", "value": "0.59%"}
{"Substance": "B4", "target or system": "CYB5R4 knockout human cells", "test": "PP4 interaction, 3xFLAG-PP4C IP-MS", "conditions": "concentration not given", "scale": "relative to: CYB5R4 KO over parental", "endpoint": "log2 fold change", "value": -1.23}
{"Substance": "Pam2CSK4", "target or system": "BV-2", "test": "Western blot, measured: NLRP3", "conditions": "concentration not given, unit not given", "scale": "relative to: control", "endpoint": "protein level", "value": "2.32 and 2.25"}
{"Substance": "CUUAUUAGG (ssRNA)", "target or system": "U2AF2", "test": "sequencing of bound RNA", "test system": "RNA", "conditions": "motif only", "endpoint": "Kd", "value": "2880 nM"}
{"Substance": "YLEPIYLGY", "target or system": "Jurkat expressing engineered TCR", "test": "NFAT-eGFP reporter, fluorescence microscopy", "test system": "peptide", "conditions": "concentration not given, HLA-A*01:01 on EL4 cells", "endpoint": "GFP-positive cells", "value": "0.44%"}
{"Substance": "TATCACAGAAAAAAAGAAAATATAATAAATTAGTATCAAGTCAATCGGTCC (dsDNA; 5'-amino-C6 primer)", "target or system": "SPT15 full length assumed (Saccharomyces cerevisiae, UniProt P13393)", "test": "array", "test system": "double-stranded DNA, one strand shown", "conditions": "TBP alone", "endpoint": "Kd", "value": "16.3 ± 1.3 nM"}
{"note": "Repeated from above:"}
{"Substance": "B1 (human RBM10)", "target or system": "CYB5R4 knockout human cells", "test": "PP4 interaction, 3xFLAG-PP4C IP-MS", "conditions": "concentration not given", "scale": "relative to: CYB5R4 KO over parental", "endpoint": "log2 fold change", "value": 0.38}
{"Substance": "CXCL12", "target or system": "human neural stem cells", "test": "western blot, measured: phospho-ERK1/2 Tyr202/Tyr204", "conditions": "12.5 nM", "endpoint": "time to ERK1/2 phosphorylation", "value": "2 to 5 min"}
